Measurements from different studies.
Each line is one published result; not all experiments were run side by side. “And” joins repeats or separate records; there may be more than shown.
UniProt Q96SW2, sequence (whole entry, looked up): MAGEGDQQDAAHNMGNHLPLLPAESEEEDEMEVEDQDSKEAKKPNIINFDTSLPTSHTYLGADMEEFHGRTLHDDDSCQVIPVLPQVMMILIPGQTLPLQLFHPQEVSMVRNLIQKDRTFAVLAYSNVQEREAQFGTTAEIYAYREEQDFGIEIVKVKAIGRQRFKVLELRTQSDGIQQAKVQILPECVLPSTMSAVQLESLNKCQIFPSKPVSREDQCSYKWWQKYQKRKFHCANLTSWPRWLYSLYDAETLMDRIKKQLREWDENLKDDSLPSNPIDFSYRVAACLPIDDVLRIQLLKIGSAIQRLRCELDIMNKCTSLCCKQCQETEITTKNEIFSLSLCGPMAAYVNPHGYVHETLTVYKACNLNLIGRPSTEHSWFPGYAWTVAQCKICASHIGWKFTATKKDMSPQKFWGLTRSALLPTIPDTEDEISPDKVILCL
UniProt Q9UKS7, sequence (whole entry, looked up): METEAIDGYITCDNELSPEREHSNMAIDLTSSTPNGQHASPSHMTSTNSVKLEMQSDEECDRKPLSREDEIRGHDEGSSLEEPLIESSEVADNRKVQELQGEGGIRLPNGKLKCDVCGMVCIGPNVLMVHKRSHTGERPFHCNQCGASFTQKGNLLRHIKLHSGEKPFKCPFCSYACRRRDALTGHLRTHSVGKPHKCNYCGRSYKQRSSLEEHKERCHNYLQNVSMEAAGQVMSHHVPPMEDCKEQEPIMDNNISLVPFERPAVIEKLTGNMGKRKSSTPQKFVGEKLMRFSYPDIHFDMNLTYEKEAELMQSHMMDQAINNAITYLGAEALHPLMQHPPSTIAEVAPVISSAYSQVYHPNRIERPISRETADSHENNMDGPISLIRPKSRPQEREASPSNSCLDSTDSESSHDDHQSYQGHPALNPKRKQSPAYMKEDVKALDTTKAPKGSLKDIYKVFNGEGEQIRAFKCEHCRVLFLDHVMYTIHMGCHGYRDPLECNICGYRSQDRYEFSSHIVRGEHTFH

Compound = CCCCC[C@@H]1CC(=O)N[C@@H](C(C)C)C(=O)N[C@H](CCCNC(=N)N)C(=O)N[C@@H](CO)C(=O)NCC(=O)N(C)[C@H](Cc2ccccc2)C(=O)N[C@@H](CC(C)C)C(=O)N[C@H](CCCNC(=N)N)C(=O)N[C@@H](CCC(=O)O)C(=O)N[C@H](C(C)C)C(=O)N[C@H](Cc2c[nH]c3ccccc23)C(=O)NCCCC(=O)O1; target or system = Escherichia coli; test = microbial growth; conditions = 16 h; measurement = MIC; result = > 64 µg/mL
Compound = Cc1ccc(O)c(C)c1-c1cnc2[nH]c(-c3cnc(N4CCC(CN5CCN(c6ccc7c8c(cccc68)C(=O)N7C6CCC(=O)NC6=O)CC5)CC4)nc3)cc2c1C#N (racemic); target or system = HCC1569; test = in-cell western, item: CDK1 phospho-Thr14; conditions = 1000 nM; measurement = pCDK1 (Thr14) level; result = 64% and 54.8%
Compound = FC(F)(F)c1ccc(C2=NOC3(NC(c4ccccc4)=NO3)N2c2ccccc2)cc1 (centres unmarked); target or system = Plasmodium falciparum; test = parasite growth; test system = DD2; conditions = 72 h, drug-resistant strain, blood stage; measurement = IC50; result = 4.6 µM
Compound = Cn1cc(-c2cccc(CN3CCC4(CC3)COc3c4ccc4c3CN([C@H]3CCC(=O)NC3=O)C4=O)c2)cn1; target or system = Jurkat; conditions = 1000 nM, 24 h, with: CD3/CD28 beads, 1:4; measurement = IL-2 level; result = 148 pg/mL and 138 pg/mL and 173 pg/mL
Compound = CCCCC[C@@H](O)CC(=O)N[C@H]1COC(=O)[C@H](CO)NC(=O)CNC(=O)[C@H]([C@@H](C)O)NC(=O)[C@H](Cc2ccccc2)NC(=O)[C@@H](Cc2c[nH]c3ccccc23)NC(=O)[C@@H]([C@H](C)O)NC(=O)[C@H](CC(N)=O)NC(=O)[C@@H]([C@H](C)O)NC(=O)[C@H](CC(C)C)NC(=O)[C@@H](Cc2c[nH]c3ccccc23)N(C)C(=O)CNC(=O)[C@H](CO)NC(=O)[C@@H](CO)NC1=O; target or system = Escherichia coli; test = microbial growth; conditions = 16 h; measurement = MIC; result = > 64 µg/mL
Compound = O=C1CCC(N2Cc3c(ccc4c3OCC43CCN(Cc4ccccc4)CC3O)C2=O)C(=O)N1 (centres unmarked); target or system = CRBN/Zinc finger protein Helios (Homo sapiens, UniProt Q96SW2+Q9UKS7); test = degrader, HiBiT; test system = HEK293; conditions = 10000 nM; measurement = protein remaining; result = 64.5%
Compound = CCCCC[C@@H]1CC(=O)N[C@@H](C(C)C)C(=O)N[C@H](CCC(=O)O)C(=O)N[C@@H](CCCNC(=N)N)C(=O)NCC(=O)N2CCC[C@H]2C(=O)N[C@@H](CC(C)C)C(=O)N[C@H](CCC(N)=O)C(=O)N[C@@H](CCC(=O)O)C(=O)N[C@H](Cc2ccc(O)cc2)C(=O)N[C@H](Cc2c[nH]c3ccccc23)C(=O)NCCCC(=O)O1; target or system = Staphylococcus aureus; test system = USA300; conditions = with: menaquinone 64 µg/mL; measurement = MIC; result = > 64 µg/mL
Compound = O=C1CC[C@@H](Nc2ccc(N3CCNCC3)c(F)c2)C(=O)N1; target or system = Protein cereblon (CRBN, Homo sapiens, UniProt Q96SW2); test = binding; conditions = 370.37 nM; measurement = inhibition; result = 40.9% and 42.6%
